# Measurements of several laboratories.
# Several values in a cell are separate wells, animals, samples, runs or records. Numbers after ± are the reported error.
SMILES,tested on,assay,system,conditions,scale,quantity,value
COCCCCCCn1ccn2cc(C(=O)NCc3ccc(F)cc3F)c(=O)c(O)c2c1=O,human immunodeficiency virus 1,single-round vector infection,integrase S230N,,,EC50,6.3 ± 0.4 nM
O=C(NC1CCN(c2ncnc3[nH]cnc23)CC1)c1cccc(NS(=O)(=O)c2ccc(C(F)(F)F)cc2)c1,monkeypox virus E1/E12,,,200 µM,,inhibition,30.4%
Cc1cc(/C=C/C#N)cc(C)c1Nc1nc(Nc2ccc(C#N)cc2)ncc1N,HIV-1,"viral replication, single-round infection",RT mutant K103N,,,EC50,0.7 ± 0.1 nM
CC[C@H](C)[C@H](NC(=O)[C@H](CC(C)C)NC(=O)[C@@H](NC(=O)[C@@H](NC(=O)[C@H](CC(C)C)NC(=O)[C@H](CCCCN)NC(=O)[C@@H](N)CCCCN)[C@@H](C)CC)[C@@H](C)O)C(=O)N[C@@H](Cc1ccccc1)C(=O)N[C@@H](CCCCN)C(=O)N[C@@H](CCCCN)C(=O)N[C@H](C(=O)N[C@@H](CCCNC(=N)N)C(=O)N[C@@H](CCC(=O)O)C(=O)N[C@@H](CCCCN)C(=O)N[C@@H](CCCCN)C(=O)N[C@@H](CCCCN)C(=O)N[C@@H](CCC(=O)O)C(=O)N[C@@H](CS)C(=O)N[C@@H](CC(C)C)C(=O)N[C@H](C(=O)O)C(C)C)[C@@H](C)O,TTX-sensitive sodium channel (mouse),"resurgent sodium current, open-channel blocker, whole-cell patch clamp",mouse hippocampal CA3 neurons,"200 µM intracellular, 22 °C, step to +30 mV, 10 ms, with: repolarisation to -30 mV",,decay time constant,8.8 ± 0.5 ms
CC[C@H](C)[C@H](NC(=O)[C@H](CCCCN)NC(=O)[C@H](CCCCN)NC(=O)[C@H](CC(C)C)NC(=O)[C@H](Cc1c[nH]c2ccccc12)NC(=O)CN)C(=O)NCC(=O)N[C@@H](CCCCN)C(=O)N[C@@H](CCCCN)C(=O)N[C@H](C(=O)N[C@@H](CCC(=O)O)C(=O)N[C@@H](CCCNC(=N)N)C(=O)N[C@H](C(=O)NCC(=O)N[C@@H](CCC(N)=O)C(=O)N[C@@H](Cc1c[nH]cn1)C(=O)N[C@H](C(=O)N[C@@H](CCCNC(=N)N)C(=O)N[C@@H](CC(=O)O)C(=O)N[C@@H](C)C(=O)N[C@H](C(=O)N[C@H](C(=O)N[C@@H](CCC(N)=O)C(=O)N[C@H](C(=O)N[C@H](C(=O)NCC(=O)N[C@H](C(=O)N[C@@H](C)C(=O)N[C@@H](CCC(N)=O)C(=O)N[C@@H](CCC(N)=O)C(=O)N[C@@H](C)C(=O)N[C@@H](C)C(=O)N[C@@H](CC(N)=O)C(=O)N[C@H](C(=O)N[C@@H](C)C(=O)N[C@@H](C)C(=O)N[C@H](C(=O)N[C@@H](CC(C)C)C(=O)N[C@@H](CCCCN)C(N)=O)[C@@H](C)O)C(C)C)C(C)C)[C@@H](C)CC)[C@@H](C)O)[C@@H](C)CC)[C@@H](C)O)[C@@H](C)O)C(C)C)[C@@H](C)CC,Pseudomonas aeruginosa,,"ATCC 27853, CAMHB with 10% mouse serum",150 mM NaCl,,MIC,64 µg/mL
Cc1ccc(NS(=O)(=O)c2c(C(=O)N3CCCCCC3)c(C)n(C)c2C)c(Cl)c1,Monkeypox virus,qPCR,"Vero C1008, wild type","100 µM, 72 h",reference: untreated,relative infection,12.1% and 9.53% and 10.1%
CC(C)C[C@H](NC(=O)[C@H](Cc1ccc(OP(=O)(O)O)cc1)NC(=O)[C@H](CCC(=O)O)NC(=O)[C@H](CC(=O)O)NC(=O)[C@H](C)NC(=O)[C@H](CC(=O)O)NC(=O)[C@@H](NC(=O)CCCCCNC(=O)CCCC[C@@H]1SC[C@@H]2NC(=O)N[C@@H]21)C(C)C)C(N)=O,YopH,,Yersinia pestis,,,dephosphorylation,96%
Cc1cn(C2CCC(OC(C(=O)O)P(=O)(O)O)C2)c(=O)[nH]c1=O (racemic),HIV-1 reverse transcriptase M184V,"enzyme activity, inhibitor",,"with: poly(rA)·oligo(dT), [3H]dTTP",reference: mutant over wild type,fold resistance,16 fold
O=C(NCc1ccc(F)cc1F)c1cn2ccn(CCCCO)c(=O)c2c(O)c1=O,human immunodeficiency virus 1,single-round vector infection,integrase G140S/Q148H,,,EC50,426 ± 35.8 nM
COc1ccc(-c2cnnn2-c2cc(OC)c(OC)c(OC)c2)cc1N,PC-3,"cytotoxicity, nuclei counting",,24 h,,EC50,9.23 ± 0.87 nM
CC(C)n1ccn2cc(C(=O)NCc3ccc(F)cc3F)c(=O)c(O)c2c1=O,human immunodeficiency virus 1,single-round vector infection,integrase R263K,,,EC50,3.7 ± 0.2 nM
Cc1cc(/C=C/C#N)cc(C)c1-n1cnc2cnc(Nc3ccc(C#N)cc3)nc21,HIV-1,"viral replication, single-round infection",RT mutant M184V,,,EC50,0.2 ± 0.01 nM
COCCCCCCN1CCn2cc(C(=O)NCc3ccc(F)cc3F)c(=O)c(O)c2C1=O,human immunodeficiency virus 1,single-round vector infection,integrase N155H,,,EC50,6.9 ± 0.5 nM
CC(C)CC(C(=O)N1CC2(CC1C#N)C(=O)Nc1ccccc12)N(C)C(=O)c1cc2c(F)cc(F)c(F)c2[nH]1 (stereo not shown),pangolin coronavirus,viral replication,,0.03704 µM,,inhibition,98.8%
COCC(C)N1CCn2cc(C(=O)NCc3ccc(F)cc3F)c(=O)c(O)c2C1=O (stereo not shown),human immunodeficiency virus 1,single-round vector infection,integrase G140S/Q148H,,,EC50,34.4 ± 1.7 nM
Nc1ncnc2c1ncn2C1CCC(OC(C(=O)O)P(=O)(O)O)C1 (racemic),HIV-1 reverse transcriptase K70Q,"enzyme activity, inhibitor",,"with: poly(rU)·oligo(dA), [3H]dATP",reference: mutant over wild type,fold resistance,3.7 fold

# Repeated from above:
SMILES,tested on,assay,system,conditions,scale,quantity,value
CC(C)C[C@H](NC(=O)[C@H](Cc1ccc(OP(=O)(O)O)cc1)NC(=O)[C@H](CCC(=O)O)NC(=O)[C@H](CC(=O)O)NC(=O)[C@H](C)NC(=O)[C@H](CC(=O)O)NC(=O)[C@@H](NC(=O)CCCCCNC(=O)CCCC[C@@H]1SC[C@@H]2NC(=O)N[C@@H]21)C(C)C)C(N)=O,YopH,,Yersinia pestis,,,dephosphorylation,96%
O=C(NCc1ccc(F)cc1F)c1cn2ccn(CCCCO)c(=O)c2c(O)c1=O,human immunodeficiency virus 1,single-round vector infection,integrase G140S/Q148H,,,EC50,426 ± 35.8 nM
